Results from different studies.
Each numbered part is a random draw from the data of one study; scales do not carry over between parts.
UniProt Q9BRS2, sequence (whole entry, looked up): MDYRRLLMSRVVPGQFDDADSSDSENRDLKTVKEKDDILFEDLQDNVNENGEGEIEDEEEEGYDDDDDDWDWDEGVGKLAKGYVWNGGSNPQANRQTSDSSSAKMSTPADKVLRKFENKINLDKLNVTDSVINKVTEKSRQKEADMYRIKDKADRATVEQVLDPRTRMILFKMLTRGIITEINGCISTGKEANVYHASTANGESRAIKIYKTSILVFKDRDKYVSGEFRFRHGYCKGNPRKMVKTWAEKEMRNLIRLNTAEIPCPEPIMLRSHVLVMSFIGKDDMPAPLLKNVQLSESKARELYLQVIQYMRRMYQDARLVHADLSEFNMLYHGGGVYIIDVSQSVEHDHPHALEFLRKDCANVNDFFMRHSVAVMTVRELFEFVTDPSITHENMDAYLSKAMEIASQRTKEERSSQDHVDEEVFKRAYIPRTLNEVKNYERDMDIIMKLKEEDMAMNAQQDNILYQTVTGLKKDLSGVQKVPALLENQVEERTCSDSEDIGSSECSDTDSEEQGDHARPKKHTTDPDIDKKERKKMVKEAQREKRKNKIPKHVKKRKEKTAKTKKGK
UniProt P10721, sequence (whole entry, looked up): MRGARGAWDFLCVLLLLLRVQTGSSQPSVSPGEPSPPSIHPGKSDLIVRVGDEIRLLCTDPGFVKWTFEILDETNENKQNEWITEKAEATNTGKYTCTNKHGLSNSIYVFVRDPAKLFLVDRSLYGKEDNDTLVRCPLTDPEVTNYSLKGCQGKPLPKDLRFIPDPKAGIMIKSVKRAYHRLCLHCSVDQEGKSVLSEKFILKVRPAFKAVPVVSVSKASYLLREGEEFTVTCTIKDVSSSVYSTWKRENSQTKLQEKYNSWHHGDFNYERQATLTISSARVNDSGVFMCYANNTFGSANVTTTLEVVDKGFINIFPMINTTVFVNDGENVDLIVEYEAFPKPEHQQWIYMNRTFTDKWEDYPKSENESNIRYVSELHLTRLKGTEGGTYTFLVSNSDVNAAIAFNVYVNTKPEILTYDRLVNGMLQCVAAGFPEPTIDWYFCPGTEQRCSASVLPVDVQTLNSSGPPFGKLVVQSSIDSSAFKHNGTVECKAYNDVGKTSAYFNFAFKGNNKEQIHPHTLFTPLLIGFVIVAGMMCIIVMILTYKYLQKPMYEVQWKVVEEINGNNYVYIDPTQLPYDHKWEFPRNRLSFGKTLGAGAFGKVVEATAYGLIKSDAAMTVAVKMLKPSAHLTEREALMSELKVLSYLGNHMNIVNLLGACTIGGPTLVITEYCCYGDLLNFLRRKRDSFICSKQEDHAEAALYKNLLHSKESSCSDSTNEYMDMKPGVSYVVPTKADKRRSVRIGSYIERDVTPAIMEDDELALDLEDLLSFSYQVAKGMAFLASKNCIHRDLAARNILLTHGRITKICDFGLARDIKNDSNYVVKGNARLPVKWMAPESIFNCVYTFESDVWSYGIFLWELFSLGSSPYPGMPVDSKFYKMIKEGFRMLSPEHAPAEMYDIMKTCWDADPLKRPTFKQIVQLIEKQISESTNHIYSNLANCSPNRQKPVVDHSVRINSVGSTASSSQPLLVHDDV
UniProt O96017, sequence (whole entry, looked up): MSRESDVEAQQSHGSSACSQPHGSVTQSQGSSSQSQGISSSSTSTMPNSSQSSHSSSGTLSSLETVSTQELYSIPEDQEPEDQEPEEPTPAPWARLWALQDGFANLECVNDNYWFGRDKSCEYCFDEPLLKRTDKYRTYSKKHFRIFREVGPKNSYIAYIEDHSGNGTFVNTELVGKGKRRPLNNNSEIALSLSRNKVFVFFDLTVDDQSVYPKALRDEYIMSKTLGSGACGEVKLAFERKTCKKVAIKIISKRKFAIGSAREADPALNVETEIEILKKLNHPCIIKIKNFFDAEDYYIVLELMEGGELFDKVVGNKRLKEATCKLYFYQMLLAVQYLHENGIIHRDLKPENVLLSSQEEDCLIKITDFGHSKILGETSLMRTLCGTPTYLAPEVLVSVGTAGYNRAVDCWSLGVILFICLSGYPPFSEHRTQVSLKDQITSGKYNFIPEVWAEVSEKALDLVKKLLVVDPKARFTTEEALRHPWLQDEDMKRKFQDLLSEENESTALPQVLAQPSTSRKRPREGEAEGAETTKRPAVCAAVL
UniProt O14920, sequence (whole entry, looked up): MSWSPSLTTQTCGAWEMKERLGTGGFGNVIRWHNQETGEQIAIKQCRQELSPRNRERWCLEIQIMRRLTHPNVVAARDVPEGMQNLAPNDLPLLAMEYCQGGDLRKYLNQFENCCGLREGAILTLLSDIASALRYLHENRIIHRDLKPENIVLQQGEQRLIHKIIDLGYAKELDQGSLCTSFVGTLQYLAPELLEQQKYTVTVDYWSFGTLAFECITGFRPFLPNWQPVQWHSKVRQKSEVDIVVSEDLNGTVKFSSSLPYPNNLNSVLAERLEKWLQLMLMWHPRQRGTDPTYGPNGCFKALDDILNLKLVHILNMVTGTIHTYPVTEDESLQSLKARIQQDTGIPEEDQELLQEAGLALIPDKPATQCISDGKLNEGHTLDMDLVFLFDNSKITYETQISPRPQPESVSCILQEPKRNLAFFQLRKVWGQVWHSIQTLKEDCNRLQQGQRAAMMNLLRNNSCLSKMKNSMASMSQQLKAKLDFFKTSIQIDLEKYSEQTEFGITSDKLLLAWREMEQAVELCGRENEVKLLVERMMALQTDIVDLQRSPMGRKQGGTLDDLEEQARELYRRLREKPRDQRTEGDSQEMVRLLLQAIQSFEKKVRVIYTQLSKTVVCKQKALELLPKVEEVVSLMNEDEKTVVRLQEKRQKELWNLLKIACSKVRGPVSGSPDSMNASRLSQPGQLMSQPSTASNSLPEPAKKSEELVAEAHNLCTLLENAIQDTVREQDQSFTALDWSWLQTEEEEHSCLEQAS
UniProt Q9UM73, sequence (whole entry, unmodified, looked up): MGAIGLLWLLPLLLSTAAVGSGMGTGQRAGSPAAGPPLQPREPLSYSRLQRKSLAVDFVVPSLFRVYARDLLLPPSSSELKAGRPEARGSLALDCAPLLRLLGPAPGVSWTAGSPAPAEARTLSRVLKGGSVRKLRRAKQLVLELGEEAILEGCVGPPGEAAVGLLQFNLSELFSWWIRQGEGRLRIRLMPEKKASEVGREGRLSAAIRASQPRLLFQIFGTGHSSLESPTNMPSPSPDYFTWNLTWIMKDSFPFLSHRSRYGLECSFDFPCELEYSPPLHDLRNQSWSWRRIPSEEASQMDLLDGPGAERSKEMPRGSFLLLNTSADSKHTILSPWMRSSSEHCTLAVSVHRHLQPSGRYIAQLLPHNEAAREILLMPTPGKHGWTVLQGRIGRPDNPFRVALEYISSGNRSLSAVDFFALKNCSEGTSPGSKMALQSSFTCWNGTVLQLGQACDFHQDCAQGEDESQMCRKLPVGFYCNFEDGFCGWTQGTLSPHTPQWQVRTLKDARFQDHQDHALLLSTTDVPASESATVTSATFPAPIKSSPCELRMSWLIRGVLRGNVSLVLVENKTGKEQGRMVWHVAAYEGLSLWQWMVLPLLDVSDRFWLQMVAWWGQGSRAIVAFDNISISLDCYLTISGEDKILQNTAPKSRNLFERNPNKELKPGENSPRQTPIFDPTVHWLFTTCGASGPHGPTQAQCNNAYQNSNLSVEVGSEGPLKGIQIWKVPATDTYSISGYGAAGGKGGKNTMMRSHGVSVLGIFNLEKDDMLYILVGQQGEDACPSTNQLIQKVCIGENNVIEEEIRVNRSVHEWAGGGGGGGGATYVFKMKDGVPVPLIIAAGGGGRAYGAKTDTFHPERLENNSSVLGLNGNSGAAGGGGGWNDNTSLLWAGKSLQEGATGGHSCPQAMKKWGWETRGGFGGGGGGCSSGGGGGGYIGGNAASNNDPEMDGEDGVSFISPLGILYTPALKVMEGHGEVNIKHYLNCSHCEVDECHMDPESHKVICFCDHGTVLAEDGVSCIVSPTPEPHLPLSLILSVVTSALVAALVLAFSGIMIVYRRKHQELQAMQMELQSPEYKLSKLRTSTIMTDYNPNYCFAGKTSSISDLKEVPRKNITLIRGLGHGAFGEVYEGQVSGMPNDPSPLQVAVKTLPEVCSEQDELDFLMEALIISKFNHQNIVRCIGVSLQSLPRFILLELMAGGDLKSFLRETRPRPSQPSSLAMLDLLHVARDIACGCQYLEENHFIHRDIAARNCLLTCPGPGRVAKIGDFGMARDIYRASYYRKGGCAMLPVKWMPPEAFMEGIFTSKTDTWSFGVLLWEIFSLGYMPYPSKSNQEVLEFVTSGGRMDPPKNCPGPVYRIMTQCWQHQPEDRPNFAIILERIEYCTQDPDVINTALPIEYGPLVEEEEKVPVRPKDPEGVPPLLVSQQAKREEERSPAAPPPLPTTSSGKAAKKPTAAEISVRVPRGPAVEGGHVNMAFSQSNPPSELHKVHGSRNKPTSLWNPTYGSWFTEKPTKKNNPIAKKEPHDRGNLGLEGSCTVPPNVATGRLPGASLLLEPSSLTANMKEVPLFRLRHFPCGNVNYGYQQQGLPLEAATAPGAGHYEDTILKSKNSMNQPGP

Sample 1
SMILES: Cc1nc(C2CCN(C(=O)c3ccc(OC(F)(F)F)cc3N)CC2)c2ncc(N3CCN(C)CC3)cc2n1
Effect on: cell-free assay
Method: competition with immobilised ligand
Tested at: 1 µM
Quantity: remaining binding
Calcium/calmodulin-dependent protein kinase type 1G (CAMK1G, Homo sapiens, UniProt Q96NX5): 100%
Phosphatidylinositol 4,5-bisphosphate 3-kinase catalytic subunit alpha isoform (PIK3CA, Homo sapiens, UniProt P42336, I800L): 96%
Dual specificity tyrosine-phosphorylation-regulated kinase 2 (DYRK2, Homo sapiens, UniProt Q92630): 100%
Serine/threonine-protein kinase Chk2 (CHEK2, Homo sapiens, UniProt O96017): 100%
Mitogen-activated protein kinase kinase kinase 12 (MAP3K12, Homo sapiens, UniProt Q12852): 100%
Casein kinase I isoform gamma-3 (CSNK1G3, Homo sapiens, UniProt Q9Y6M4): 100%
Mitogen-activated protein kinase 8 (MAPK8, Homo sapiens, UniProt P45983): 98%
Serine/threonine-protein kinase MARK1 (MARK1, Homo sapiens, UniProt Q9P0L2): 100%
Serine/threonine-protein kinase DCLK1 (DCLK1, Homo sapiens, UniProt O15075): 85%
NT-3 growth factor receptor (NTRK3, Homo sapiens, UniProt Q16288): 97%
Inhibitor of nuclear factor kappa-B kinase subunit beta (IKBKB, Homo sapiens, UniProt O14920): 78%
ALK tyrosine kinase receptor (ALK, Homo sapiens, UniProt Q9UM73, L1196M): 98%
Mast/stem cell growth factor receptor Kit, autoinhibited (KIT, Homo sapiens, UniProt P10721): 76%
Phosphatidylinositol 5-phosphate 4-kinase type-2 gamma (PIP4K2C, Homo sapiens, UniProt Q8TBX8): 100%
Ephrin type-A receptor 4 (EPHA4, Homo sapiens, UniProt P54764): 100%
Receptor-type tyrosine-protein kinase FLT3 (FLT3, Homo sapiens, UniProt P36888, F691L/ITD): 84%
Serine/threonine-protein kinase RIO1 (RIOK1, Homo sapiens, UniProt Q9BRS2): 100%
Serine/threonine-protein kinase 32B (STK32B, Homo sapiens, UniProt Q9NY57): 90%

Sample 2
Host: human
Sample: microsomes or S9
Tested at: 2 µM
Time: 0.5 h
Quantity: remaining compound
COC(=O)c1cn2c(nc3cc(F)c(F)cc32)c(C#N)c1O: 63.1%
CCC(=O)CC(=O)Nc1cccc(Cl)c1Cl: 14%
CN(C(=O)CN(c1ccc(Cl)c(Cl)c1)S(C)(=O)=O)C(CN1CCCC1)c1ccc(-c2ccnc(Cl)c2)cc1 (centres unmarked): 31.2%
Cc1cc(C)nc(N2CCN(c3ccccn3)CC2)n1: 26.7%
CC(=O)c1c(NC2CCCc3ccccc32)[nH]c2c(C)cc(Cl)cc2c1=O (centres unmarked): 3.93%
COc1ccc2c(c1)CCC(N1CCCCC1)C2O (centres unmarked): 37.5%
CCC(C)N(CC(=O)N1CCN(c2ccc(-c3ccc(C)cc3)nn2)CC1)C(=O)c1ccccc1F (centres unmarked): 0.16%
COc1ccc(-c2cc(-c3nc4c5ccccc5ncn4n3)n[nH]2)cc1: 12.3%
CCN(CC(=O)NC)C(=O)c1cc(C)c(C)c(S(=O)(=O)NC)c1: 80.5%
Cc1nc(C(=O)NC(C)C(C)(C)C)c2n1CCCC2 (centres unmarked): 71.7%
COc1cc(=O)[nH]cc1C(=O)N1CCCC1c1ccnn1C (centres unmarked): 88.5%

Sample 3
Effect on: AlphaScreen signal
Method: AlphaScreen counter screen
Sample: His6 peptide without bromodomain
Tested at: 50 µM
Setting: assay interference check
Quantity: inhibition
c1ccc(-c2cnc(Nc3ccc(OCCN4CCCC4)cc3)s2)cc1: 73.1%
CC(C)c1cc(/C=C(\C#N)C(=O)NCCCc2ccccc2)cc(C(C)C)c1O: 19.9%
Cc1[nH]nc(-c2ccc(O)c(C)c2O)c1Oc1ccc(Br)cc1: 35.7%
COc1ccc(OC)c(NC(=O)c2cc(-c3cc(Cl)ccc3O)n[nH]2)c1: 34.1%
CC(CCl)=C(C#N)c1nc2ccccc2s1: 24.8%
Cn1cccc1C=C(C#N)c1nc2ccccc2s1: 69.5%
Cc1c[nH]c(-c2cnc(NCCNc3ccc(C#N)cn3)nc2-c2ccc(Cl)cc2Cl)n1: 12.5%
CN(C)CC1CCn2c(c(C3=C(c4cn(C)c5ccccc45)C(=O)NC3=O)c3ccccc32)C1.Cl (centres unmarked): 86.3%
N#CC(=Cc1ccc(O)c(O)c1)C(=O)NCc1ccccc1: 32.5%

Sample 4
Target: Casein kinase I isoform gamma-1 (CSNK1G1, Homo sapiens, UniProt Q9HCP0)
UniProt Q9HCP0, sequence (whole entry, looked up): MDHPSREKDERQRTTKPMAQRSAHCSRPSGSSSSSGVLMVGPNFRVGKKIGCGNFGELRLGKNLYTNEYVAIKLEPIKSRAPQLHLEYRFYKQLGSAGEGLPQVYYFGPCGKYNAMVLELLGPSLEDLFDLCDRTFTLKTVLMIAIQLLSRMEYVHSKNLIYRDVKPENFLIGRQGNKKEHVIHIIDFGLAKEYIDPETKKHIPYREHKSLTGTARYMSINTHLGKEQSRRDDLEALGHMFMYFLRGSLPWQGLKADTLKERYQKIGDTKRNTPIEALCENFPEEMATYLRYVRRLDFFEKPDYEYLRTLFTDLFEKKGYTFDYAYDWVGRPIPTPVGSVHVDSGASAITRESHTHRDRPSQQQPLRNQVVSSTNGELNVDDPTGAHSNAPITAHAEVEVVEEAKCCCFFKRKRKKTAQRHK
Effect on: enzyme activity
Action: inhibitor
Tested at: 0.5 µM
Reference: control
Quantity: remaining activity
O=C(c1ccccc1)c1ccc(N2CCOCC2)cc1O: 105%
COc1cc2c(N3CCN(C(=O)Nc4ccc(OC(C)C)cc4)CC3)ncnc2cc1OCCCN1CCCCC1: 98%
CC(C)N(CCC(=O)c1ccc2ccccc2c1)Cc1ccccc1: 101%
O=C1c2ccccc2-c2nc3nnnn3nc21: 85.2%
NC(=O)c1ccc(-c2nc(-c3ccc4c(c3)OCCO4)c(-c3ccccn3)[nH]2)cc1: 104%
N#CC(c1ccnc(NCCc2cccnc2)n1)c1nc2ccccc2s1 (centres unmarked): 88.8%
CCN(CC)CCCCN1c2ccccc2Oc2ccc(Cl)cc21: 104%
O=Nc1c(-c2c(O)[nH]c3ccccc23)[nH]c2ccccc12: 86.8%
C[C@@H](N)[C@H]1CC[C@H](C(=O)Nc2ccncc2)CC1: 99.6%
O=C1NC(=O)/C(=C/c2ccc3c(c2)OC(F)(F)O3)S1: 75.5%
CNc1cc2c(Nc3cccc(Br)c3)ncnc2cn1: 81.7%
CCCCc1c(-c2ccc(O)cc2)[nH]c2nccnc12: 93.1%
CC(C)n1cnc2c(Nc3cccc(Cl)c3)nc(NCCO)nc21: 16%
O=c1c(-c2ccc(F)cc2)c(-c2ccncc2)[nH]n1-c1ccc(Cl)cc1: 83.4%
NC(=O)c1cccc(-c2cc(Nc3ccc(OC(F)(F)F)cc3)ncn2)c1: 97.8%
Nc1nc(Nc2ccc(S(N)(=O)=O)cc2)nn1C(=S)Nc1c(F)cccc1F: 16.7%
N#C/C(=C(/N)SC1C=CC=CC1)c1cccc(C(O)c2ccncc2)c1 (centres unmarked): 88.2%
Clc1ccc(Nc2nnc(Cc3ccncc3)c3ccccc23)cc1: 103%
O=C(O)/C=C/c1cc(Br)c(Br)c(Br)c1Br: 97.2%
CC(C)(C)c1nc2c3cc[nH]c(=O)c3c3cc(F)ccc3c2[nH]1: 96.5%
c1cc(-c2cnn3cc(-c4ccc(OCCN5CCCCC5)cc4)cnc23)ccn1: 88.7%
